Measured values collected from several papers.
Values joined by “and” are separate records of one study, mostly repeats; a detail may differ.

SMILES | cell line | test | setting | how to read | quantity | value
Cc1ncsc1-c1ccc(C(C)NC(=O)C2CC(O)CN2C(=O)C(NC(=O)CCCCCCCCCCN2CCCC(Nc3ncc(Cl)c(Nc4ccccc4S(=O)(=O)C(C)C)n3)C2)C(C)(C)C)cc1 (centres unmarked) | 22Rv1 | RNA-seq, measured: LPP-AS2 | concentration not given | reference: DMSO | log2 fold change | -1.79
CC12CCCC(NS(=O)(=O)C3CCCCC3)(C1)C1CC(C)(C)C1CC2 (centres unmarked) | HT-29 | cell growth or viability, CCK-8 | 10 µM |  | inhibition | < 50%
Cc1cc(Cl)cc(-c2ccnc3cc(CN4C(=O)C5C(C4=O)C5(C)C)sc23)c1C[C@@H]1CNCCO1 (some centres unmarked) | CHP-212 resistant cells (pooled) | annexin V-PI flow cytometry | 0.3 µM, 48 h |  | viable cells (annexin V-/PI-) | 84.5% and 83.3% and 91.7%
COc1ccc2c(c1)C(n1nnc3ccccc31)C1=C(CCCC1=O)O2 (centres unmarked) | 3T3-L1 mature adipocytes | lipolysis, Oil Red O staining | IC20 |  | mean lipid content | 0.675 OD492
C[C@@H]1CC[C@@H]([C@](O)(CNCc2cccc(F)c2)COCc2ccccc2)[C@H](OCc2ccccc2)C1 | HeLa | cell growth or viability, MTT | 30 µM, 72 h |  | inhibition | 96.6%
CCC(=CCc1c(O)cc2c(c1O)C(=O)CC(c1cc(O)ccc1OC)O2)CC (centres unmarked) | HeLa | cell growth or viability, MTT | 50 µM, 48 h |  | inhibition | 71.4%
CN1CCCNC(=O)c2cccc(c2)C(=O)NCCCN(C)CCCNc2cccc3c2C(=O)c2cccc(c2C3=O)NCCC1 | SAS | RNA-Seq, measured: PAWR mRNA | 1 µM, 6 h | reference: untreated cells | log2 fold change | -0.4
CCC(=CCc1c(O)cc2c(c1O)C(=O)CC(c1cccc(OC)c1O)O2)CC (centres unmarked) | HeLa | cell growth or viability, MTT | 6.25 µM, 48 h |  | inhibition | 16.3%
CC[C@H](C)[C@H](NC(=O)[C@H](CCCC(=O)O)NC(=O)[C@H](CC(=O)O)NC(C)=O)C(=O)N[C@@H](CC(=O)O)C(=O)COC(=O)c1c(C)cccc1C | THP-1 cells, LPS-primed | pyroptosis, LDH release | 25 µM, LPS 1 µg/mL, 4 h, added: nigericin 5 µM, 2 h |  | cell lysis | 91.4%
CNS(=O)(=O)Nc1nccc(Cc2c(C)c3ccc(Oc4ncccc4F)cc3oc2=O)c1F | SK-MEL-2 | cell viability | 7 days |  | IC50 | 0.00366 µM
COc1ccc(NC(=O)c2ccc3[nH]c(-c4ccc(N(C)C)cc4)nc3c2)cn1 | HCEC-hTERT | IncuCyte | concentration not given, 20 h |  | dead cell to confluence ratio | 10.5 and 2.44 and 74.1
CCN(CC)CC(=O)Nc1cccc(-n2cc(-c3ccc4ccc(-c5cn(-c6cccc(NC(=O)CN(CC)CC)c6)nn5)cc4c3)nn2)c1 | RCC4 | PCR angiogenesis array, measured: ITGAV | 5 x IC50, 4 h, normoxia | reference: untreated | fold regulation | -1.32
O=C(C[Se]C(=O)c1cc2ccccc2o1)Nc1cccc(C(F)(F)F)c1 | NCI60 NSCLC subpanel mean | cell growth |  |  | TGI | 3.09 µM
O=S(=O)(N[C@H]1CCO[C@@H](C2c3ccccc3CCc3ccccc32)C1)c1ccc(OC(F)(F)F)cc1 | D425 | immunoblot, measured: CCL2 | concentration not given |  | protein level | decreased
CC12CCCC(NS(=O)(=O)c3cccc(F)c3)(C1)C1CC(C)(C)C1CC2 (centres unmarked) | HT-29 | cell growth or viability, CCK-8 | 50 µM |  | inhibition | 97.4%
CCCCCCCCCCCC(=O)N[C@@H](CO)C[C@@H](O)c1cccc(CCCCCC)c1 | HeLa | CERT activity, HPLC-MS/MS lipidomics, measured: sphingomyelin 22 | 1 µM, 24 h, not cell-number normalised |  | sphingomyelin level | 29200 pmol/sample and 40800 pmol/sample and 30700 pmol/sample
COC1CCN(C(=O)/C=C/c2nn(Cc3cccc(C(F)(F)F)c3)c3nc(NC(C)(C)C)ncc23)CC1 | OE33 | cell growth or viability, resazurin | 5 days |  | EC50 | > 30 µM
